Assay results pooled from the literature.
Each line is one published result; not all experiments were run side by side. Numbers after ± are the reported error.
Cell line: Vero

SMILES	effect on	technique	tested at	time	notes	quantity	value
CN[C@@H]1[C@H](O)[C@H](NC)[C@H]2O[C@]3(O)[C@H](O[C@@H]2[C@H]1O)O[C@H](C)C[C@]3(O)CNCc1ccc(F)cc1	–	–	–	–	–	IC50	> 100 µg/mL
Cc1ccc(S(=O)(=O)Nn2c3c(cc(-c4nc5ccccc5s4)c2=O)CCCC3)cc1	–	trypan blue	–	72 h	–	maximum non-toxic concentration	130 µg/mL
Cc1ccc(O)c(C=NNC(=N)NO)n1	cell growth	Coulter counter	–	2 days	–	TC50	389 µM
CC(=O)O[C@@H]1[C@@H](OC(C)=O)[C@H](Sc2sc(C(=O)c3ccc(Br)cc3)c(N)c2-c2nc3ccccc3s2)OC[C@@H]1OC(C)=O	cytotoxicity	–	–	72 h	–	maximum non-toxic concentration	100 µg/mL
CCCCCCSc1ccc(SCCCCCC)c(O)c(=O)c1O	–	MTS	up to 100 µM	–	–	cytotoxicity	not toxic
CC(=O)OCC1OC(n2cc(C)c(=O)[nH]c2=O)C2CC=CCC12 (mixture of isomers)	cytotoxicity	–	–	3 days	–	IC50	> 100 µM
Cc1ncc(COP(=O)(O)O)c(C=NNC(=N)NO)c1O	–	cell morphology	100 µM	–	–	cytotoxicity	not toxic
Nc1ncnc2c1ncn2C1OC(CO)C2CC=CCC21 (mixture of isomers)	cytotoxicity	–	–	3 days	–	IC50	> 100 µM
Cc1ncc([N+](=O)[O-])n1CCOCc1nnc(SCC(=O)c2ccc(Br)cc2)o1	cell growth or viability	MTT	6 µM	48 h	–	viability	104%
CC(=O)OC[C@H]1O[C@@H](Sc2sc(C(=O)c3ccc(Cl)cc3)c(N)c2-c2nc3ccccc3s2)[C@H](OC(C)=O)[C@@H](OC(C)=O)[C@@H]1OC(C)=O	cytotoxicity	–	–	72 h	–	maximum non-toxic concentration	80 µg/mL
COc1ccc(Nc2c(C#N)cnc3ccc(Cl)cc23)cc1	cell growth or viability	resazurin	–	72 h	–	CC50	> 100 µM
Nc1nc(Cl)nc2c1ncn2C1OC(CO)C2CC=CCC21 (mixture of isomers)	cytotoxicity	–	–	3 days	–	IC50	> 100 µM
CC(=O)OC[C@H]1O[C@@H](Sc2sc(C(=O)c3ccc(Br)cc3)c(N)c2-c2nc3ccccc3s2)[C@H](OC(C)=O)[C@@H](OC(C)=O)[C@@H]1OC(C)=O	cytotoxicity	–	–	72 h	–	maximum non-toxic concentration	100 µg/mL
COc1cc(OC)c2c(c1)OCC(c1cc(OC)c(OC)cc1OC)C2=NO (stereo not drawn)	cytotoxicity	MTT	–	72 h	10% fetal bovine serum	IC50	159 ± 8.29 µM
O=C(C=CC(Cc1ccccc1)Nc1ccnc2cc(Cl)ccc12)NCC(=O)NCc1ccccc1 (stereo not drawn)	–	MTT	concentration not given	–	–	cytotoxicity	not toxic
Cc1ncc([N+](=O)[O-])n1CCOCc1nnc(SCC(=O)c2ccc(Cl)cc2)o1	cell growth or viability	MTT	6 µM	48 h	–	viability	98.4%
CC(=O)O[C@@H]1[C@@H](OC(C)=O)[C@H](Sc2sc(C(=O)c3ccc(Cl)cc3)c(N)c2-c2nc3ccccc3s2)OC[C@H]1OC(C)=O	cytotoxicity	–	–	72 h	–	maximum non-toxic concentration	80 µg/mL
Cc1ccc(S(=O)(=O)Nn2c3c(cc(-c4nc5ccccc5s4)c2=O)CCCCCC3)cc1	–	trypan blue	–	72 h	–	maximum non-toxic concentration	130 µg/mL
Cc1ncc([N+](=O)[O-])n1CCOCc1nnc(SCC(=O)c2ccc(F)cc2)o1	cell growth or viability	MTT	6 µM	48 h	–	viability	102%
CN[C@@H]1[C@H](O)[C@H](NC)[C@H]2O[C@]3(O)[C@H](O[C@@H]2[C@H]1O)O[C@H](C)C[C@]3(O)CNCc1ccc(OC(F)(F)F)cc1	–	–	–	–	–	IC50	> 100 µg/mL
O=c1c(-c2nc3ccccc3s2)cc2c(n1NS(=O)(=O)c1ccc(Cl)cc1)CCCCCC2	–	trypan blue	–	72 h	–	maximum non-toxic concentration	130 µg/mL
CC(=O)O[C@@H]1[C@@H](OC(C)=O)[C@H](Sc2sc(C(=O)c3ccc(C)cc3)c(N)c2-c2nc3ccccc3s2)OC[C@H]1OC(C)=O	cytotoxicity	–	–	72 h	–	maximum non-toxic concentration	90 µg/mL
CC(=O)OCC1OC(n2cc(C=CBr)c(=O)[nH]c2=O)C2CC=CCC12 (mixture of isomers)	cytotoxicity	–	–	3 days	–	IC50	> 100 µM
CC(=O)OC[C@H]1O[C@@H](Sc2sc(C(=O)c3ccc(C)cc3)c(N)c2-c2nc3ccccc3s2)[C@H](OC(C)=O)[C@@H](OC(C)=O)[C@@H]1OC(C)=O	cytotoxicity	–	–	72 h	–	maximum non-toxic concentration	90 µg/mL
O=C1C=C(c2coc3cc(O)cc(O)c3c2=O)C(=O)C([N+](=O)[O-])=C1O	cytotoxicity	MTT	–	72 h	10% fetal bovine serum	IC50	24.6 ± 3.79 µM
Nc1c(C(=O)c2ccc(Br)cc2)sc(S)c1-c1nc2ccccc2s1	cytotoxicity	–	–	72 h	–	maximum non-toxic concentration	100 µg/mL
CN[C@@H]1[C@H](O)[C@H](NC)[C@H]2O[C@]3(O)[C@H](O[C@@H]2[C@H]1O)O[C@H](C)C[C@@]3(O)CNCc1ccccc1	–	–	–	–	–	IC50	> 100 µg/mL
